Experimental data pooled from the literature.
Lines come from different studies, so protocols differ.
Cell line: HUVEC

Structure (SMILES) = COc1ccc2cc3[n+](cc2c1OCc1cn(Cc2ccc([N+](=O)[O-])cc2)nn1)CCc1cc2c(cc1-3)OCO2; effect on = cell growth or viability; technique = MTT; IC50 = 36.5 µM
Structure (SMILES) = COC(=O)CNc1cc(CS(=O)(=O)c2ccc3ccccc3c2)ccc1OC; effect on = cell growth or viability; technique = MTS; time = 48 h; IC50 = 1.22 µM
Structure (SMILES) = O=C(Nc1ccc([N+](=O)[O-])cc1Cl)c1cc(F)ccc1O; effect on = cell growth or viability; technique = CCK-8; time = 24 h; IC50 = 18.7 µM
Structure (SMILES) = COc1ccc2cc3[n+](cc2c1OCc1cn(Cc2ccccc2Br)nn1)CCc1cc2c(cc1-3)OCO2; effect on = cell growth or viability; technique = MTT; IC50 = 13.9 µM
Structure (SMILES) = COc1ccc2c(c1)OCc1c-2oc2cc3c(cc12)OCO3; effect on = cell growth or viability; technique = MTT; time = 72 h; IC50 = > 50 µM
Structure (SMILES) = COc1ccc2cc3[n+](cc2c1OCc1cn(Cc2ccc(S(C)(=O)=O)cc2)nn1)CCc1cc2c(cc1-3)OCO2; effect on = cell growth or viability; technique = MTT; IC50 = 74.6 µM
Structure (SMILES) = COc1ccc([C@@H]2COc3cc(O)ccc3C2)c(OC)c1; effect on = cell growth or viability; technique = MTT; time = 72 h; IC50 = > 50 µM
Structure (SMILES) = COc1ccc(CC[C@H]2OC(=O)[C@@H]3CCCCN3C(=O)C(=O)C(C)(C)COC(=O)C=CCCN(C)C(=O)[C@H](CC(C)C)N(C)C(=O)[C@H]3CCCN3C(=O)[C@H](Cc3ccccc3)N(C)C(=O)[C@H](Cc3ccccc3)NC(=O)CCC(=O)Nc3cccc2c3)cc1OC; effect on = thymidine uptake; IC50 = 0.366 µM
Structure (SMILES) = COc1ccc2cc3[n+](cc2c1OCc1cn(Cc2ccc(C(C)(C)C)cc2)nn1)CCc1cc2c(cc1-3)OCO2; effect on = cell growth or viability; technique = MTT; IC50 = 25.5 µM
Structure (SMILES) = Cc1[nH]nc2c1N=C(c1ccccc1Cl)c1cnc(N3CCOCC3)cc1N2; effect on = cell growth or viability; time = 72 h; IC50 = 0.0094 µM
Structure (SMILES) = COc1ccc2cc3[n+](cc2c1OCc1cn(Cc2ccc(Cl)cc2)nn1)CCc1cc2c(cc1-3)OCO2; effect on = cell growth or viability; technique = MTT; IC50 = 31.4 µM
Structure (SMILES) = O=C(N/C(=C/c1ccc([N+](=O)[O-])cc1)c1nc2ccccc2c(=O)o1)c1ccccc1; effect on = cell growth or viability; technique = MTT; time = 48 h; IC50 = 79.2 µM
Structure (SMILES) = COC(=O)CNc1cc(C[S+]([O-])c2ccc3cc(Br)ccc3c2)ccc1OC (centres unmarked); effect on = cell growth or viability; technique = MTS; time = 48 h; IC50 = 28.4 µM
Structure (SMILES) = COc1ccc(CC[C@H]2OC(=O)[C@@H]3CCCCN3C(=O)C(=O)C(C)(C)COC(=O)C=CCCN(C)C(=O)[C@H](Cc3ccccc3)NC(=O)[C@@H](Cc3ccccc3)N(C)C(=O)[C@@H]3CCCN3C(=O)[C@H](CC(C)C)N(C)C(=O)CCC(=O)Nc3cccc2c3)cc1OC; effect on = thymidine uptake; IC50 = 0.426 µM
Structure (SMILES) = COc1cc2c(cc1OCCCOc1no[n+]([O-])c1S(=O)(=O)c1ccccc1)CCC1C2CCC2(C)C(O)CCC12 (centres unmarked); effect on = cell growth or viability; technique = MTT; time = 48 h; IC50 = 0.725 µM
Structure (SMILES) = COc1cc2c(=O)c(-c3ccc4c(c3)OCO4)coc2c2c1OC(C)(C)C=C2; effect on = cell growth or viability; technique = MTT; time = 72 h; IC50 = > 50 µM
Structure (SMILES) = [NH2][Pt]1([NH2])([Cl])([O]C(=O)C(F)(F)F)[O]C(=O)C2(CC(=O)C2)C(=O)[O]1; effect on = cell growth or viability; technique = MTT; IC50 = > 200 µM
